Published values of several laboratories.
Compare with care: the assays were run in different laboratories. Numbers after ± are the reported error.
ISOC2: Isochorismatase domain-containing protein 2 (ISOC2, Homo sapiens, UniProt Q96AB3)

SMILES | tested on | assay | system | conditions | scale | endpoint | value
COc1ccc(CCCn2ncc3c2nc(N)n2nc(-c4ccco4)nc32)cc1 | adenosine A2A receptor, sheep | competition binding | striatum membranes | one-site model, added: 24 nM [3H]CGS21680 |  | Kd | 180 ± 50 nM
CC[C@H](CC[C@@H](C)[C@H]1CC[C@H]2[C@@H]3CCC4=CC(=O)CC[C@]4(C)[C@H]3CC[C@]12C)C(C)C | CYP125 ancestral reconstruction | UV-Vis difference spectra |  | Michaelis-Menten fit |  | Kd | 1100 ± 300 nM
CN(C)Cc1c(C(=O)NCCOc2ccc(C(=O)NO)cc2)oc2ccccc12 | ISOC2 | inhibitor, competition pulldown | SW620 and MV4-11 lysate | 1 h |  | Kd | > 30200 nM
O=C(C[C@@H](C(F)F)n1ccc(F)n1)N1CCC(O)(Cn2cnc3c(cnn3-c3ccc(F)cc3)c2=O)CC1 | USP7 (Homo sapiens, UniProt Q93009, V517G) | isothermal titration calorimetry |  | USP7 V517G |  | Kd | 52 ± 14 nM
CC1=CC(=O)CC(C)(C)[C@]1(O)/C=C/C(C)=C\C(=O)O | RIPK1, LRR domain (Fragaria x ananassa, UniProt A0A0C4Y8D1) | binding, isothermal titration calorimetry |  | pH 7.4, 25 °C |  | Kd | 15100 ± 2400 nM
NC(=O)CCCCC1CCSS1 (racemic) | lplA (Escherichia coli, UniProt P32099) | binding, isothermal titration calorimetry |  |  |  | Kd | 27700 nM
CCCCCCCCCCCCCCCC(=O)SCCNC(=O)CCNC(=O)C(O)C(C)(C)COP(=O)(O)OP(=O)(O)OCC1OC(n2cnc3c(N)ncnc32)C(O)C1OP(=O)(O)O (centres unmarked) | Mitochondrial dynamics protein MIEF1 (MIEF1, Homo sapiens, UniProt Q9NQG6) | binding, MANT-ADP competition |  |  |  | Kd | < 5000 nM
NCCS(=O)(=O)O | SLC6A6 (Homo sapiens, UniProt P31641, Y138A) | microscale thermophoresis |  | Y138A mutant |  | Kd | no binding
Cn1cc(-c2ccc(-c3cncc(Cl)c3N3CCC4(CCNC4=O)CC3)cc2)cn1 | COLO 205 | gene expression, microarray, item: SLC2A4 mRNA |  | concentration not given, 6 h | relative to: untreated cells | log2 fold change | -2.54
CCCCN(Cc1ccc(C(=O)NO)cc1)C(=O)Nc1ccccc1 | ISOC2 | inhibitor, competition pulldown | SW620 and MV4-11 lysate | 1 h |  | Kd | > 30200 nM
COC1=C(OC)C(=O)C(CC=C(C)C)=C(C)C1=O | Reaction center protein M chain, QA site (pufM, Cereibacter sphaeroides, UniProt P0C0Y9) | QA site binding | LDAO detergent solution | pH 7.8, 298 K, added: 1 µM reaction centres |  | Kd | 100 nM
CC(C)C[C@H](NC(=O)C[C@H](O)[C@H](CC(C)C)NC(=O)[C@H](Cc1c[nH]cn1)NC(=O)CNC(=O)[C@@H](NC(=O)[C@H](C)NC(=O)[C@H](Cc1c[nH]c2ccccc12)NC(=O)[C@H](CCC(N)=O)NC(=O)[C@@H](Cc1ccccc1)NC(=O)COCCOCCNC(=O)CCC(C(=O)O)N1CCN(CC(=O)O)CCN(CC(=O)O)CCN(CC(=O)O)CC1)C(C)C)C(N)=O (some centres unmarked) [lutetium-177 labelled] |  |  | BALB/c nu/nu mice, carcass | 750 pmol, 1 h, added: PA 300 µg |  | tissue uptake | 3 ± 1 %ID
COc1cc2c3c(n(CCCN4CCC[C@H]4C(N)=O)c(=O)c2cc1OC)-c1nc2c(cc1C3=O)OCO2 | MYC G-quadruplex DNA | binding, fluorescence |  | pH 7.0, 20 °C, added: K+ 100 mM |  | Kd | 59 nM
CC(C)[C@H](C)CC[C@@H](C)[C@H]1CC[C@H]2[C@@H]3CC=C4C[C@@H](O)CC[C@]4(C)[C@H]3CC[C@]12C | CYP125 ancestral reconstruction | UV-Vis difference spectra |  | Morrison fit, fitted enzyme |  | Kd | 1500 ± 3600 nM
O=C(CCCCCCNC(=O)c1cnc(N(c2ccccc2)c2ccccc2)nc1)NO | ISOC2 | inhibitor, competition pulldown | SW620 and MV4-11 lysate | 1 h |  | Kd | 8.13 nM
C=C1CC[C@H](O)C/C1=C/C=C1\CCC[C@]2(C)[C@@H]([C@H](C)CCCC(C)C)CC[C@@H]12 | CYP125 ancestral reconstruction | UV-Vis difference spectra |  | Michaelis-Menten fit |  | Kd | 1400 ± 300 nM
Nc1ccccc1NC(=O)c1ccc(CNc2nccc(-c3cccnc3)n2)cc1 | ISOC2 | inhibitor, competition pulldown | SW620 and MV4-11 lysate | 1 h |  | Kd | > 30200 nM
COc1cc2c3c(n(CCCN4CCOCC4)c(=O)c2cc1OC)-c1nc2c(cc1C3=O)OCO2 | MYC G-quadruplex DNA | binding, fluorescence |  | pH 7.0, 20 °C, added: K+ 100 mM |  | Kd | 249 nM
Nc1ncnc2c1ncn2[C@@H]1O[C@H](COP(=O)(O)OP(=O)(O)O)[C@@H](O)[C@H]1O | GUK1, part: GMP-bound (Homo sapiens, UniProt Q16774) | binding, ITC |  | added: ATPγS |  | Kd | 14000 ± 3000 nM
Cn1cc(CNCC2CCN(c3ncc(C(=O)NO)cn3)CC2)c2ccccc21 | ISOC2 | inhibitor, competition pulldown | SW620 and MV4-11 lysate | 1 h |  | Kd | > 30200 nM

Excerpt of the above:
SMILES | tested on | assay | system | conditions | scale | endpoint | value
Nc1ccccc1NC(=O)c1ccc(CNc2nccc(-c3cccnc3)n2)cc1 | ISOC2 | inhibitor, competition pulldown | SW620 and MV4-11 lysate | 1 h |  | Kd | > 30200 nM
